Values quoted from earlier work as cited in several papers.
Protocols differ between the studies behind these lines. ± gives the spread as reported.
CDK1: Cyclin-dependent kinase 1 (CDK1, Homo sapiens, UniProt P06493)

By UniProt entry, the sequences of proteins in these tests, tags left out. Residues count along the entry.
UniProt P06493, whole entry: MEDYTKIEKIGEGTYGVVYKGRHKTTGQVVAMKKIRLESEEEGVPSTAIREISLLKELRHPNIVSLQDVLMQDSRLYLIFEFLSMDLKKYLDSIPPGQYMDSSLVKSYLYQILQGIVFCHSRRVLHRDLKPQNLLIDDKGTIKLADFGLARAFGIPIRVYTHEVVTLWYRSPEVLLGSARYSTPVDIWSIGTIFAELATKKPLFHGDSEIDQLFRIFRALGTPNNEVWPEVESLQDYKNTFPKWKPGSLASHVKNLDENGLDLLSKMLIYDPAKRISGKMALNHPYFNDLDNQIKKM
UniProt P00491, whole entry: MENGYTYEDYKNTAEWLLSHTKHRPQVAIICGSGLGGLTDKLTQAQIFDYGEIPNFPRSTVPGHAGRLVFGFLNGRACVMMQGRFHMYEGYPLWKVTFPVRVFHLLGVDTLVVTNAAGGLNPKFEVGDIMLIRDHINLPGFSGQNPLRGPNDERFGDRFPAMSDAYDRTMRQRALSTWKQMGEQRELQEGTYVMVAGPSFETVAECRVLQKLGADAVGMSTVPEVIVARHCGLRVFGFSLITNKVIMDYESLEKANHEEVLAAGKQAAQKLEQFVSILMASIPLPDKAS
UniProt P42260, 32-908 limits assumed: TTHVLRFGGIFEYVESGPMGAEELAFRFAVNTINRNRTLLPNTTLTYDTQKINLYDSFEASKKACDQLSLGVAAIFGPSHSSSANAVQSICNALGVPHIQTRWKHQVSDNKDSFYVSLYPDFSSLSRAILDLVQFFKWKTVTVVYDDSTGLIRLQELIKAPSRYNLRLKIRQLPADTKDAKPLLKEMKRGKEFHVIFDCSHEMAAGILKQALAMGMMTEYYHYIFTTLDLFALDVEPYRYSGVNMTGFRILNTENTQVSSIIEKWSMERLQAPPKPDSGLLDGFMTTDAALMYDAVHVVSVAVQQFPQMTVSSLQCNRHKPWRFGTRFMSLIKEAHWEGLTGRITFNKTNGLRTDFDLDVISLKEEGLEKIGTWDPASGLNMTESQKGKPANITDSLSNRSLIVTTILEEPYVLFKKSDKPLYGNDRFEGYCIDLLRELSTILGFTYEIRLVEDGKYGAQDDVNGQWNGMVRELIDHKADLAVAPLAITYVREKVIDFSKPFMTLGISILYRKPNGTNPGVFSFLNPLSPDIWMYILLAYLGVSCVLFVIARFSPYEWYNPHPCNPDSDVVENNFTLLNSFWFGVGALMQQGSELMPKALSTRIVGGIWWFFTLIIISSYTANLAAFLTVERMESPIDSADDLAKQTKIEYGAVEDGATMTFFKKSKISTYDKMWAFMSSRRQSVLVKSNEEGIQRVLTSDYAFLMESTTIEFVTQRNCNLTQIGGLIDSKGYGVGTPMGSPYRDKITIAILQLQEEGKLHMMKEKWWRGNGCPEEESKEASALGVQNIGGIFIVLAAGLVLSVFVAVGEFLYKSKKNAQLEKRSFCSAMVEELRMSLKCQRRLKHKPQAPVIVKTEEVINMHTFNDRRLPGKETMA
UniProt O15392, whole entry: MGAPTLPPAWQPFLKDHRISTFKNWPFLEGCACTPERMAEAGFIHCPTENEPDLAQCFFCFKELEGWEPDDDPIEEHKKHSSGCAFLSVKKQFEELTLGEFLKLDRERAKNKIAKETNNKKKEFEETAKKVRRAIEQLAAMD
UniProt Q01727, whole entry: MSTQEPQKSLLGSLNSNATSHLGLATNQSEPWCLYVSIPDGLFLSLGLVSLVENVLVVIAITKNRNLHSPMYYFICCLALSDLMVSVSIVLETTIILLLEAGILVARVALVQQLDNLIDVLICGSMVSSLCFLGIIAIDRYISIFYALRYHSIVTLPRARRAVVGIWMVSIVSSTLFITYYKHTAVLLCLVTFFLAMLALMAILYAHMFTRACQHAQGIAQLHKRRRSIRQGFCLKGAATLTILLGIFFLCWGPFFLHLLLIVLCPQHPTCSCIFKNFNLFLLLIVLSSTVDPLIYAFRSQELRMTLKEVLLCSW
UniProt Q00961, 20-1237 limits assumed: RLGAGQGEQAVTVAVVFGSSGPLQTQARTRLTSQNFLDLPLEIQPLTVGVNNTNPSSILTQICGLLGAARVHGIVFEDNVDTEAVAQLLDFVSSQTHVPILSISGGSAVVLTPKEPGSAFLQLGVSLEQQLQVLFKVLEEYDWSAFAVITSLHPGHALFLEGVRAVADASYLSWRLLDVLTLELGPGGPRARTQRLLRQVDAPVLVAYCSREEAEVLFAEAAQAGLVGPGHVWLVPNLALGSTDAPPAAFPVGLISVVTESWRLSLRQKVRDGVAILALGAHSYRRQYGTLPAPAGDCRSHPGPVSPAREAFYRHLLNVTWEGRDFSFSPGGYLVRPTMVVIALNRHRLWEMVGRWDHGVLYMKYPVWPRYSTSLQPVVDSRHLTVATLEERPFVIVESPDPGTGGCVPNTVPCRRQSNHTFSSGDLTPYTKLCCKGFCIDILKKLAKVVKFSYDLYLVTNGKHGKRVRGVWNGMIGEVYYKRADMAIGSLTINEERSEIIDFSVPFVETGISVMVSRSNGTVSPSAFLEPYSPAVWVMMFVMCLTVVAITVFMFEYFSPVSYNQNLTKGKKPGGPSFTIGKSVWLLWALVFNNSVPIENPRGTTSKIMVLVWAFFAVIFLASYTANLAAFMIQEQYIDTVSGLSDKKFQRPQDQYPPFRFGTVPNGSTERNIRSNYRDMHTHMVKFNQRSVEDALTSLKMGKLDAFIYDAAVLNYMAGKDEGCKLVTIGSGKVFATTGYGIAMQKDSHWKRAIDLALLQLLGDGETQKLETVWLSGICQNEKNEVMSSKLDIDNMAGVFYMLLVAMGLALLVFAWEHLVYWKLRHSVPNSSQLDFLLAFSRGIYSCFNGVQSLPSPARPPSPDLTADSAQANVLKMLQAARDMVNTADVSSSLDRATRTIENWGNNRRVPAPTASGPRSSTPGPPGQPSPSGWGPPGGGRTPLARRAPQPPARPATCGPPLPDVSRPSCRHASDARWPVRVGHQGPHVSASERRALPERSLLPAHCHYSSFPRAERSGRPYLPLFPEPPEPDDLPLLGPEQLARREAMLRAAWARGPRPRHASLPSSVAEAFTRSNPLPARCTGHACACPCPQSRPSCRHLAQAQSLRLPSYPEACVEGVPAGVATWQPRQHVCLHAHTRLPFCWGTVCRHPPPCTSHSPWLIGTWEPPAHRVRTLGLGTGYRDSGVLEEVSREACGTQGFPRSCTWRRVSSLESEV
UniProt Q05397, whole entry, looked up: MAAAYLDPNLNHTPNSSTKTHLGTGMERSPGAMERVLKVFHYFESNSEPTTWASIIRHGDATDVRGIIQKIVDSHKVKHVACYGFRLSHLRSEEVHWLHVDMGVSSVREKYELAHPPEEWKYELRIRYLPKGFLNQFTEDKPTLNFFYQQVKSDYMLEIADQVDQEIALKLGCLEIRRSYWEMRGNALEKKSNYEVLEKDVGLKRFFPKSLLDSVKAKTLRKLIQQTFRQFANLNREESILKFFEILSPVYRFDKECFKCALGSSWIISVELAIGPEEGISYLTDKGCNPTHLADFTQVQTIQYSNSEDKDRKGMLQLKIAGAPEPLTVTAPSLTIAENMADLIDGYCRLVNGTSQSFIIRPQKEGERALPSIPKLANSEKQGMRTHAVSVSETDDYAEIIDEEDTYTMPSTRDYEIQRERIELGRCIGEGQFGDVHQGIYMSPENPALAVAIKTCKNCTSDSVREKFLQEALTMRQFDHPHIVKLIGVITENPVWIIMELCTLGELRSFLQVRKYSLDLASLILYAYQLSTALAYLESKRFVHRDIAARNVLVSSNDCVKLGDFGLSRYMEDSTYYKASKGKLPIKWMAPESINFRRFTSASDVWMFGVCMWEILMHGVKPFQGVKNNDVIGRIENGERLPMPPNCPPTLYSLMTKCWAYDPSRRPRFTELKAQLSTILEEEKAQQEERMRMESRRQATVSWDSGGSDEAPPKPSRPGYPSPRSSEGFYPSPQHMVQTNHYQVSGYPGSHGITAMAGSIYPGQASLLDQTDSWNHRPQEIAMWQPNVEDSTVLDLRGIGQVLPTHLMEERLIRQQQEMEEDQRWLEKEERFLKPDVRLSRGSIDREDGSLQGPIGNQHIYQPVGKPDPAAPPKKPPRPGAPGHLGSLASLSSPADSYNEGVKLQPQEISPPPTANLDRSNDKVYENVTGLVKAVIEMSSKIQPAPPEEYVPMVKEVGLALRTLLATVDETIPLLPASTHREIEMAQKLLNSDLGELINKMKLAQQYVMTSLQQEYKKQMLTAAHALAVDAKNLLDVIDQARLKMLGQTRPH
UniProt P10747, whole entry, looked up: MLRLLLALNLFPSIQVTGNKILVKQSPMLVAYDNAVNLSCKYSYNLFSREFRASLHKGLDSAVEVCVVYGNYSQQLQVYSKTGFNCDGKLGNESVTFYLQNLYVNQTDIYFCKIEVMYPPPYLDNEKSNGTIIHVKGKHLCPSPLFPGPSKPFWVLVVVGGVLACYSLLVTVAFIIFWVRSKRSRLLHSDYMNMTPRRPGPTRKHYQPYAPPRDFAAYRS
UniProt P42264, 32-919 limits assumed: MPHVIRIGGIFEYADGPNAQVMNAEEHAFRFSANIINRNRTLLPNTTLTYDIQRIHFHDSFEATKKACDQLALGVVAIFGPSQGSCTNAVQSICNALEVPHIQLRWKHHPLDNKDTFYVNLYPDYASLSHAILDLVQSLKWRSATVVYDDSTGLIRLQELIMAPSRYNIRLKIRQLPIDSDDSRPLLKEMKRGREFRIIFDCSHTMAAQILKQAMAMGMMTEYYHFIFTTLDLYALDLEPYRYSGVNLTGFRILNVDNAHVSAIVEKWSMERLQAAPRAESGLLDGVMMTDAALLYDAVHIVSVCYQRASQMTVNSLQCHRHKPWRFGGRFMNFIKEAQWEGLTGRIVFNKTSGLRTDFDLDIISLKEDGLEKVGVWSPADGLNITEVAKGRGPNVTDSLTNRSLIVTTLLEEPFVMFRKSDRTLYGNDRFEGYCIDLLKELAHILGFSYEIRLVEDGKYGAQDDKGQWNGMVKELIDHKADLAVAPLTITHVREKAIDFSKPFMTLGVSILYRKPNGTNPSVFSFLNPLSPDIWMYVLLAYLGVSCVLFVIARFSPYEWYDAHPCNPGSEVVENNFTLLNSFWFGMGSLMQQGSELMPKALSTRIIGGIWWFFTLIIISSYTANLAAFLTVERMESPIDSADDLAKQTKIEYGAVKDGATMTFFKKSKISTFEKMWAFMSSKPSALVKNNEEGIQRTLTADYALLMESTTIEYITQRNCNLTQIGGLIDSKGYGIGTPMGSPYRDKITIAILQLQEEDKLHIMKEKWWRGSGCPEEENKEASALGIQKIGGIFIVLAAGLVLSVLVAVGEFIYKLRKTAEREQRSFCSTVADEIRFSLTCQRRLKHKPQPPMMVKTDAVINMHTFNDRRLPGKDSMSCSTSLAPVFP
UniProt P20248, whole entry partner: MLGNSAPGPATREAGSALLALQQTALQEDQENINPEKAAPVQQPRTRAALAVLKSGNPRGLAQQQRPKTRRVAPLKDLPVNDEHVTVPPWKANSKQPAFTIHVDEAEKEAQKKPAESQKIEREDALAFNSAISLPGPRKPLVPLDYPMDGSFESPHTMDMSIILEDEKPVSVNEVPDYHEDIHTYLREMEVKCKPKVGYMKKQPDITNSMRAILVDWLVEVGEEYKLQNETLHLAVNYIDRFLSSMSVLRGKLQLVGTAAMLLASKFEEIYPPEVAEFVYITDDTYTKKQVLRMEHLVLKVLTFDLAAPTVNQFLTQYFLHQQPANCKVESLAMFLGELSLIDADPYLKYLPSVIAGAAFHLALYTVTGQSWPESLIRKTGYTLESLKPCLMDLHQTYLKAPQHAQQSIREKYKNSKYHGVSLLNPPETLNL

Structure (SMILES) | target | assay | setting | measurement | result
CNc1nc(C)c(-c2nc(Nc3ccc(N4CCC(N)CC4)cn3)ncc2F)s1 | CDK1 | kinase activity, inhibitor |  | IC50 | 2.37 µM
C[C@H]1N[C@@H](c2c[nH]c3c(=O)[nH]cnc23)[C@H](O)[C@@H]1O | Purine nucleoside phosphorylase (PNP, Homo sapiens, UniProt P00491) | binding | pH 7.4, 25 °C, first subunit, with: phosphate 50 mM | Kd | 0.025 ± 0.001 µM
CCC[C@@H]1CN[C@H](C(=O)O)[C@H]1c1cccc(C(=O)O)c1 | Glutamate receptor ionotropic, kainate 2 (Grik2, Rattus norvegicus, UniProt P42260) | binding, radioligand binding | homomeric receptor, with: [3H]kainate | Ki | 81 µM
C[C@H](N)C(=O)N[C@@H](CCCNC(=N)N)C(=O)N[C@H](C(=O)N[C@@H](CCCCN)C(=O)N[C@@H](CCC(N)=O)C(=O)N[C@H](C(=O)N[C@@H](C)C(=O)N[C@@H](CCCNC(=N)N)C(=O)N[C@@H](CCCCN)C(=O)N[C@@H](CO)C(=O)N[C@H](C(=O)NCC(=O)O)[C@@H](C)O)[C@@H](C)O)[C@@H](C)OP(=O)(O)O | Baculoviral IAP repeat-containing protein 5 (BIRC5, Homo sapiens, UniProt O15392) | ITC | pH 7.2, 25 °C | Kd | 2.31 ± 0.08 µM
C[C@@H]1NC(=O)[C@H](CC(N)=O)NC(=O)[C@H](Cc2c[nH]c3ccccc23)NC(=O)[C@H](CCCNC(=N)N)NC(=O)[C@@H](Cc2ccccc2)NC(=O)[C@H](Cc2c[nH]cn2)NC(=O)[C@@H](NC(=O)[C@@H](N)Cc2ccc(O)cc2)CSSC[C@@H](C(=O)N[C@@H](Cc2ccc(O)cc2)C(N)=O)NC(=O)[C@H](Cc2ccccc2)NC1=O | Melanocyte-stimulating hormone receptor (Mc1r, Mus musculus, UniProt Q01727) | cAMP, agonist |  | EC50 | 0.0004 µM
O=C(O)c1cc([C@H]2CCN[C@@H]2C(=O)O)ccc1Cl | Glutamate receptor ionotropic, NMDA 2C, with GluN1 (Rattus norvegicus, UniProt Q00961) | ion current, antagonist, two-electrode voltage clamp | GluN1/GluN2C | IC50 | 24 µM
COc1c(O)cc2ccc3cc(O)ccc3c2c1OC | CDK1 | kinase activity, inhibitor |  | IC50 | 1.2 µM
O=C(O)c1ccc(-c2cn[nH]c2)nc1 | Focal adhesion kinase 1 (PTK2, Homo sapiens, UniProt Q05397) | surface plasmon resonance |  | Kd | 1300 µM
CCN1CCC(CCc2cnc(Nc3cc(-c4cc(F)c5nc(C)n(C(C)C)c5c4)ncn3)cn2)CC1 | CDK1 | kinase activity, inhibitor |  | IC50 | 0.134 µM
CCC(C)NC(=O)CSc1nnc(Nc2ccc(C(C)C)cc2)s1 (stereo not drawn) | CD28 (Homo sapiens, UniProt P10747) | binding, microscale thermophoresis |  | Kd | 52.5 ± 18.7 µM
CS(=O)(=O)N(CCCN1CCCCC1)c1ccc(Nc2ncc3cnn(C4CCCCCC4)c3n2)cc1 | CDK1 | kinase activity, inhibitor |  | IC50 | 0.006 µM
O=C(O)c1cc(O)cc([C@H]2CCN[C@@H]2C(=O)O)c1 | Glutamate receptor ionotropic, kainate 3 (Rattus norvegicus, UniProt P42264) | binding, radioligand binding | homomeric receptor, with: [3H]kainate | Ki | 2.1 µM

Repeated from above:
Structure (SMILES) | target | assay | setting | measurement | result
CCC[C@@H]1CN[C@H](C(=O)O)[C@H]1c1cccc(C(=O)O)c1 | Glutamate receptor ionotropic, kainate 2 (Grik2, Rattus norvegicus, UniProt P42260) | binding, radioligand binding | homomeric receptor, with: [3H]kainate | Ki | 81 µM
C[C@H](N)C(=O)N[C@@H](CCCNC(=N)N)C(=O)N[C@H](C(=O)N[C@@H](CCCCN)C(=O)N[C@@H](CCC(N)=O)C(=O)N[C@H](C(=O)N[C@@H](C)C(=O)N[C@@H](CCCNC(=N)N)C(=O)N[C@@H](CCCCN)C(=O)N[C@@H](CO)C(=O)N[C@H](C(=O)NCC(=O)O)[C@@H](C)O)[C@@H](C)O)[C@@H](C)OP(=O)(O)O | Baculoviral IAP repeat-containing protein 5 (BIRC5, Homo sapiens, UniProt O15392) | ITC | pH 7.2, 25 °C | Kd | 2.31 ± 0.08 µM
